Literature values that unrelated publications cite.
Lines come from different studies, so protocols differ. ± gives the spread as reported. Converted amounts (≈) assume the structure as drawn.

The IC50 of `CC1CCCC(CCC(O)Cn2c3ccccc3c3ccccc32)N1C` (stereo not shown) is reported as 4970 nM (Plasmodium; parasite growth).
With `O=C(c1ccc(-c2ccc3ncnc(Nc4ccc(OCc5cccc(F)c5)c(Cl)c4)c3c2)cc1)N1CCCCC1` the EC50 was 940 nM (Trypanosoma brucei; parasite growth).
The MIC of `c1ccc2c(C3NCCc4c3[nH]c3ccccc43)c[nH]c2c1` (stereo not shown) is reported as 50 µM (≈ 14.4 µg/mL) (Staphylococcus aureus; reference strains).
For `CN1CCN(S(=O)(=O)c2ccc(-c3ccc4ncnc(Nc5ccc(OCc6ccccc6)c(Cl)c5)c4c3)cc2)CC1`, the EC50 was 610 nM (Trypanosoma brucei; parasite growth).
For `CCOC(=O)[C@H]1c2c(ccc3ccccc23)O[C@@H]2c3ccccc3CCN21`, “relative fluorescence index” read 0.13 (Staphylococcus aureus; efflux pump inhibition; ATCC 25923; 100 µM; relative to: untreated cells).
`CN1CCN(Cc2cccc(CC(O)Cn3c4ccc(Br)cc4c4cc(Br)ccc43)c2)CC1` (stereo not shown) gave an IC50 of 95 nM (Plasmodium; parasite growth).
For `CCN(CC)CC#CCNc1ccnc2cc(Cl)ccc12`, the IC50 was 46 nM (Plasmodium falciparum; parasite growth, SYBR Green I; 3D7; average of experiments).
The IC50 of `O=C(CCn1c(=O)c2ccccc2n(Cc2ccccc2F)c1=O)N1CCc2ccccc2C1` is reported as 18100 nM (Plasmodium; parasite growth).
Under “relative fluorescence index”, `c1ccc2c(c1)CCNC2c1c[nH]c2cnccc12` (stereo not shown) is recorded as 0.53 (Escherichia coli; efflux pump inhibition; AG100A AcrAB-TolC deleted; 50 µM; relative to: untreated cells).
The MIC of `NS(=O)(=O)c1nnc(NC(=O)CCC2CCCCC2)s1` is reported as 0.022 µM (≈ 0.00701 µg/mL) (Enterococcus faecium; HM-965).
`Cc1cc(-c2ccc3ncnc(Nc4ccc(OCc5cccc(F)c5)c(Cl)c4)c3c2)cnc1N1CCOCC1` has an EC50 of 1000 nM (Trypanosoma brucei; parasite growth).
With `COc1ccc(Nc2nc(Nc3ccc(OCC[18F])cc3)ncc2Br)cc1` the tissue uptake was 1.95 ± 0.25 %ID/g (S180 tumour-bearing mice, bone; intravenous, 15 min).
For `COc1cccc(COc2ccc(Nc3ncnc4ccc(-c5ccc(S(=O)(=O)N6CCOCC6)cc5)cc34)cc2Cl)c1`, the EC50 was 1400 nM (Trypanosoma brucei; parasite growth).
`O=C(Cc1ccc(Br)cc1)N[C@H]1CCOC1=O` has an inhibition of 40% (Pseudomonas aeruginosa; biofilm formation; PAO1; 50 µM).
`CCOC(=O)[C@H]1c2c(ccc3ccccc23)O[C@@H]2c3[nH]c4ccccc4c3CCN21`: “relative fluorescence index” 0.05 (Staphylococcus aureus; efflux pump inhibition; ATCC 25923; 100 µM; relative to: untreated cells).
For `O=C(c1cccc(S(=O)(=O)N2CCc3ccccc32)c1)N1CCC(c2nnc3ccccn23)CC1`, the IC50 was 18500 nM (Plasmodium; parasite growth).
`O=S(=O)(c1cccc(-c2ccc3ncnc(Nc4ccc(OCc5cccc(F)c5)c(Cl)c4)c3c2)c1)N1CCCC1` has an EC50 of 250 nM (Trypanosoma brucei; parasite growth).
`[2H]C([2H])([2H])C1(C([2H])([2H])[2H])NC(=O)N(c2ccc(F)c(C(C)(F)F)c2)C1=O`: “worm burden reduction” 100% (Schistosoma mansoni; juvenile, infected mice; oral, 50 mg/kg single dose).
With `Fc1cccc(COc2ccc(Nc3ncnc4ccc(-c5ccc(CN6CCOCC6)cc5)cc34)cc2Cl)c1` the EC50 was 990 nM (Trypanosoma brucei; parasite growth).
`c1cnc2[nH]cc(C3NCCc4sccc43)c2c1` (stereo not shown) — result for “relative fluorescence index”: -0.1 (Staphylococcus aureus; efflux pump inhibition; ATCC 25923; 50 µM; relative to: untreated cells).
`NS(=O)(=O)c1nnc(NC(=O)C2CCCCC2)s1` gave an MIC of 1.72 µM (≈ 0.499 µg/mL) (Enterococcus faecalis; NR-31971).
The MIC of `CC(C)C[C@@H](NC(=O)[C@H](C)NC(=O)CNC(=O)[C@@H](NC=O)C(C)C)C(=O)N[C@@H](C)C(=O)N[C@@H](C(=O)N[C@H](C(=O)N[C@@H](C(=O)N[C@@H](Cc1c[nH]c2ccccc12)C(=O)N[C@H](CC(C)C)C(=O)N[C@@H](Cc1c[nH]c2ccccc12)C(=O)N[C@H](CC(C)C)C(=O)N[C@@H](Cc1c[nH]c2ccccc12)C(=O)N[C@H](CC(C)C)C(=O)N[C@@H](Cc1c[nH]c2ccccc12)C(=O)NCCO)C(C)C)C(C)C)C(C)C` is reported as 0.033 µM (≈ 0.0621 µg/mL) (Streptococcus pyogenes; SSI-9).
For `c1ccc2c(C3NCCc4sccc43)c[nH]c2c1` (stereo not shown), “relative fluorescence index” read 0.43 (Escherichia coli; efflux pump inhibition; AG100A AcrAB-TolC deleted; 50 µM; relative to: untreated cells).
For `O=C(c1cccc(-c2ccc3ncnc(Nc4ccc(OCc5cccc(F)c5)c(Cl)c4)c3c2)c1)N1CCCCC1`, the EC50 was 140 nM (Trypanosoma brucei; parasite growth).
`CCOC(=O)[C@H]1c2ccc3ccccc3c2O[C@@H]2c3ccsc3CCN21`: “relative fluorescence index” 1.82 (Staphylococcus aureus; efflux pump inhibition; ATCC 25923; 100 µM; relative to: untreated cells).
The IC50 of `CN1CCN(Cc2cccc(CC(O)Cn3c4ccc(Cl)cc4c4cc(Cl)ccc43)c2)CC1` (stereo not shown) is reported as 82 nM (Plasmodium; parasite growth).
The EC50 of `Fc1cccc(COc2ccc(Nc3ncnc4ccc(-c5cccc(N6CCSCC6)c5)cc34)cc2Cl)c1` is reported as 770 nM (Trypanosoma brucei; parasite growth).
For `c1ccc2c(c1)CCNC2c1c[nH]c2ncccc12` (stereo not shown), “relative fluorescence index” read 0.52 (Escherichia coli; efflux pump inhibition; AG100A AcrAB-TolC deleted; 50 µM; relative to: untreated cells).
